# Measurements gathered from unrelated publications.
# Every numbered part comes from another study and shows a few of its results, in no order. Changes are numbered by the printed parent chain.

# Sample 1 — target: inorganic phosphate, free oxyanion; technique: microfluidic competitive inhibition; sample: in vitro, cell-free expressed; tested at: not given; direction: lower = stronger binding
# Notes: derived from inhibition constants, unchanged parent 615000 nM
# Starting sequence: PafA, mature enzyme, eGFP fusion (Elizabethkingia meningoseptica, UniProt Q9KJX5); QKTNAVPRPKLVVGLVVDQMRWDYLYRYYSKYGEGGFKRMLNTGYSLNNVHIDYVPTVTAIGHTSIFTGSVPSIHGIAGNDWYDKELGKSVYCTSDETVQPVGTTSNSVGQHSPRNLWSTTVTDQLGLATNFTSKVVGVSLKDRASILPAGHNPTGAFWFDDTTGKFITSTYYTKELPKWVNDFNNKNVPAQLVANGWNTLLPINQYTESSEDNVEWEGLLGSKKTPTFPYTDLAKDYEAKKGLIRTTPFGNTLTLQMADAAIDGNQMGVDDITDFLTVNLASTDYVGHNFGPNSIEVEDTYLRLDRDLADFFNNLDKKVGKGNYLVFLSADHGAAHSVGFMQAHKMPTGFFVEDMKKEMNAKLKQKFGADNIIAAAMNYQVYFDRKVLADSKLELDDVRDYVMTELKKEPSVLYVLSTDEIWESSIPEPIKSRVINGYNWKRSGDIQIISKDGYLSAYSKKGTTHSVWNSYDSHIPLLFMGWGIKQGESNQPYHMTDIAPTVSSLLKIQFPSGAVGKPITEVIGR
Change,phosphate dissociation constant
R386G,727 µM
V523G,585 µM
N182G,576 µM
N314V,628 µM
M268G,606 µM
D401G,616 µM
E522V,530 µM
M360V,631 µM

# Sample 2 — target: CCNE2, cyclin fold, Cln2 fusion (human); technique: yeast growth competition, sequencing; sample: yeast; notes: strong parent motif; relative to: not given; direction: higher = stronger binding
# Starting sequence: viral docking peptide; KKVKRRLFETREL; partner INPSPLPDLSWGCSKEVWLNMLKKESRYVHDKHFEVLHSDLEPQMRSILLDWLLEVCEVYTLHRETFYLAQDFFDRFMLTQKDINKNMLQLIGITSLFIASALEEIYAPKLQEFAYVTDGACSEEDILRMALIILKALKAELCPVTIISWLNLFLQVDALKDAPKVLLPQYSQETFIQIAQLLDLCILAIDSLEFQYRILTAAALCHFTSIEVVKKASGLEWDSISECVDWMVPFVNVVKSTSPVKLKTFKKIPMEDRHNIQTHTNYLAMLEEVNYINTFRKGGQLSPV
Change,normalised enrichment score
L7A,1.1
R6A,1.74
V3A,3.08
E12A,3.17
R5A,0.737
E9A,2.85
F8L,0.514
K4A,2.47

# Sample 3 — read-out: binding; technique: phage display NGS; form: peptide; relative to: input library
# Target: UDP-N-acetylglucosamine--peptide N-acetylglucosaminyltransferase 110 kDa subunit (OGT, Homo sapiens, UniProt O15294)
# Target sequence (O15294 1-1046): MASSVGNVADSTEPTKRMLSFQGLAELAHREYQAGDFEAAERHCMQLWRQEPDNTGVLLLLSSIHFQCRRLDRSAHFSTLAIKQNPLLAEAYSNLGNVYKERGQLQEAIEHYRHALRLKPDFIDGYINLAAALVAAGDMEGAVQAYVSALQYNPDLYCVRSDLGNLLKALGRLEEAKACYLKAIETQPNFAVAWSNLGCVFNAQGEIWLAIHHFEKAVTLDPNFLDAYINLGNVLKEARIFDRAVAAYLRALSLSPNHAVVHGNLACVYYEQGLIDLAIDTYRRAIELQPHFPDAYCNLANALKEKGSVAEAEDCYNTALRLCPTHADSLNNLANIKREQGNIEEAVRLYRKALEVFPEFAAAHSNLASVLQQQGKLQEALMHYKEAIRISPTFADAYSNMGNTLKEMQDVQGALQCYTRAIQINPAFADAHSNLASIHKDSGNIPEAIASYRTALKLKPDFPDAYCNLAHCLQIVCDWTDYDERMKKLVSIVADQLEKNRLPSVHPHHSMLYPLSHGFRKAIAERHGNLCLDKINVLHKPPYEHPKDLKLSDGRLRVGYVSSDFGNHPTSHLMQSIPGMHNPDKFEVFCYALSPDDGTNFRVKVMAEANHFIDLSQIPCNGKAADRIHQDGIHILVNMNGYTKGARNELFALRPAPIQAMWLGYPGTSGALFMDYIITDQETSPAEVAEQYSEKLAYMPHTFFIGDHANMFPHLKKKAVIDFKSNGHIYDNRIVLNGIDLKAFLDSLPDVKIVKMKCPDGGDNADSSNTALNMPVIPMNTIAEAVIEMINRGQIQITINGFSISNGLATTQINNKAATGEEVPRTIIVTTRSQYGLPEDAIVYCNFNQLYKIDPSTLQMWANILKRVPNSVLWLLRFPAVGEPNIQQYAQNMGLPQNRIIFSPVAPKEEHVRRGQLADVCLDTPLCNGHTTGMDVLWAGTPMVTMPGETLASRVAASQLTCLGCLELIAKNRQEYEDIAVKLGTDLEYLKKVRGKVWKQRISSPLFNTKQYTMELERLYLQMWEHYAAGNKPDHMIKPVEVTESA
Molecule,minimum log2 enrichment ratio
QFWPMVTHNAHITGG,1.6
HIVHYNKYFASGTHT,1.25
RHPHEHDLHDVITHA,3.18
HDHQHESWFVHIPH,3.4
IVFAPQYQLQYTRSA,4.39
HQLQIHHRSHLNDYP,2.33
TDKHQHMHHVTHVA,3.68
HREQHDMTYHMIHSR,2.19

# Mixed results
SMILES,cell line,test,conditions,how to read,quantity,value
C[C@@H]1CN(Cc2ccc(F)cc2)CCN1C(=O)COc1ccc(Cl)cc1NC(N)=O,mouse MPNST tumor cells,"high-content nuclear imaging, item: cell number","10 µM, 12 h, mean of 2 replicates","relative to: plate mean, higher = more cells",nuclei count,1.39 z-score

# Repeated from above (sample 2):
Change,normalised enrichment score
E9A,2.85
R5A,0.737
